Results gathered from unrelated publications.
Every numbered part comes from another study and shows a few of its results, in no order.

Block 1
Target: Interferon regulatory factor 5, full length, phosphomimetic (IRF5, Homo sapiens, UniProt Q13568-2, residues 1-514, S451D/S453D/S456D/S462D)
Method: protein-binding microarray
Molecule type: double-stranded DNA, one strand shown
Medium: in vitro
Tested at: 940 nM top
Notes: 60-bp whole probe
With: salmon DNA 0.4 mg/ml
Reference: random background probes
Reading: higher = stronger binding
Under “fitted relative affinity”, `GCCTAGCACTACGATTTCGGGTTTCGAGACGTGCTAGTCTTGATTCGCTTGACGCTGCTG` is recorded as 2.37 z-score.
`GCCTAGCACGACGGATTCCTTCTCCTGACGTGCTAGGTCTTGATTCGCTTGACGCTGCTG` — result for “fitted relative affinity”: 0.0737 z-score.
`GCCTAGCACATTCTTTGCTCATTTTTCAGGGTGCTAGTCTTGATTCGCTTGACGCTGCTG`: “fitted relative affinity” 1.03 z-score.
`GCCTAGCACGACGGCCTCGGTATCGGGACGTGCTAGGTCTTGATTCGCTTGACGCTGCTG`: “fitted relative affinity” 1.05 z-score.

Block 2
Target: Sal-like protein 4, full length isoform B (SALL4, Homo sapiens, UniProt Q9UJQ4-2, residues 1-616)
Method: universal PBM
Molecule type: double-stranded DNA, one strand shown
Medium: in vitro
Tested at: not given
Notes: 8-mer, flanks averaged, mean of replicates
Reading: higher = stronger binding
For `GTCTGAGA`, the E-score was -0.0956.
For `AACACAGG`, the E-score was -0.0996.
`CTTGACCC` gave an E-score of -0.269.
For `ATTACGGA`, the E-score was 0.0253.
For `GGGAGTCA`, the E-score was -0.124.
The E-score of `AAACTATG` is reported as 0.148.

Block 3
Target: Histone acetyltransferase KAT6A, both winged helices, GST fusion (KAT6A, Homo sapiens, UniProt Q92794, residues 1-181)
Method: protein binding microarray
Molecule type: double-stranded DNA, one strand shown
Medium: in vitro
Tested at: not given
Notes: 8-mer, flanks averaged, mean of 2 arrays, mostly near background
Reference: not given
Reading: higher = stronger binding
Construct (chain): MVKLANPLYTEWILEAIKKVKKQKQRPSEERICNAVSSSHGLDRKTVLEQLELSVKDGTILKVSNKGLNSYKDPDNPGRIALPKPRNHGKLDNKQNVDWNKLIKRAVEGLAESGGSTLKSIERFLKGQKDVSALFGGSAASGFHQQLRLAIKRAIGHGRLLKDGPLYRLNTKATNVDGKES
`ACGCAGAC` gave an E-score of 0.113.
With `AGTTCTTC` the E-score was 0.00453.
`CGCGTCCG` has an E-score of 0.277.
`AAACTTGC` gave an E-score of 0.0638.
`CGAGCGAA` has an E-score of -0.0286.

Single results of other studies
`PhoQ, residues 284 288 289 292 302 303 NLGVHL` gave a fold induction of 14 (PhoP, residues 12 14 15 18 19 LWHSL (Escherichia coli, UniProt P23836); Sort-seq, refers to: YFP reporter; E. coli; PhoQ-PhoP variant library, with: 10 µM Mg2+; reference: high Mg2+ state, higher = stronger signaling).
